Published values pooled from the literature.
Every numbered part comes from another study and shows a few of its results, in no order.
Sequence of UniProt P11802 (whole entry, looked up): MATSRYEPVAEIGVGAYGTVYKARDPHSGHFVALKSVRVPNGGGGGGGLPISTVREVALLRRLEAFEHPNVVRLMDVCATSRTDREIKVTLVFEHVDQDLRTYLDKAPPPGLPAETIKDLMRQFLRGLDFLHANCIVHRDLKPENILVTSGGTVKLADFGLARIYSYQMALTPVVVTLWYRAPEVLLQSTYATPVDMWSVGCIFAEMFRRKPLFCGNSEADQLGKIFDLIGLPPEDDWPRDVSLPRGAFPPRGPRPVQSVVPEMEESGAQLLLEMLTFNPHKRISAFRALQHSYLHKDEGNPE
Sequence of UniProt Q9P286 (whole entry, looked up): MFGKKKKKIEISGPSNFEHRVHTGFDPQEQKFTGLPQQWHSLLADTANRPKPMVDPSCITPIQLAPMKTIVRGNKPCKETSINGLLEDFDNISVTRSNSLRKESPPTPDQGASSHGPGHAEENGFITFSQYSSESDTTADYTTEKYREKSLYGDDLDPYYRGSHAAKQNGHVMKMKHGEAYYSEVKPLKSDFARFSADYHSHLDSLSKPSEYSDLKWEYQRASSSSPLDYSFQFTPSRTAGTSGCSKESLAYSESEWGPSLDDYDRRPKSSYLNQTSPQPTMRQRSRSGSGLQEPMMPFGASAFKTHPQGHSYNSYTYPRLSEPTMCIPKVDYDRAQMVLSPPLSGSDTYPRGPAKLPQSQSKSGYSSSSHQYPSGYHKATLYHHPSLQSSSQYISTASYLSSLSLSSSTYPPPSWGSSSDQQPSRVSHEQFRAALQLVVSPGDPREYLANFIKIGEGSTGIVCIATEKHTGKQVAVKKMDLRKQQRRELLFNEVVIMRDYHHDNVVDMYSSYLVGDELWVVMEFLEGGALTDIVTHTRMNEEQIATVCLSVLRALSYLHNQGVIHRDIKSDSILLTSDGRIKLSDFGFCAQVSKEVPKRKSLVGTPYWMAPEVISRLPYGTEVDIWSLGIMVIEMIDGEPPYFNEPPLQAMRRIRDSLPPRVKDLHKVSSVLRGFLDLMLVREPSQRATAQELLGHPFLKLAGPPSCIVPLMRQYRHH
Sequence of UniProt Q6P2M8 (whole entry, looked up): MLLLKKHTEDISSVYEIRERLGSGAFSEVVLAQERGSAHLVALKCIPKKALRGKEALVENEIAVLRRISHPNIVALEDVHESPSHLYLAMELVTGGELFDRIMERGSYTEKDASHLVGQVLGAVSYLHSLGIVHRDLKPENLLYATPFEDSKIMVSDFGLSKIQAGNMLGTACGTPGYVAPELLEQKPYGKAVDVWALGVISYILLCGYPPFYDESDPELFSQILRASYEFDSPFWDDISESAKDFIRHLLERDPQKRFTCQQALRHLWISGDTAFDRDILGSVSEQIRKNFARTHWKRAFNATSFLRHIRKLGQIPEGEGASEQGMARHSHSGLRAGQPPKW
Sequence of UniProt P07949 (whole entry, unmodified, looked up): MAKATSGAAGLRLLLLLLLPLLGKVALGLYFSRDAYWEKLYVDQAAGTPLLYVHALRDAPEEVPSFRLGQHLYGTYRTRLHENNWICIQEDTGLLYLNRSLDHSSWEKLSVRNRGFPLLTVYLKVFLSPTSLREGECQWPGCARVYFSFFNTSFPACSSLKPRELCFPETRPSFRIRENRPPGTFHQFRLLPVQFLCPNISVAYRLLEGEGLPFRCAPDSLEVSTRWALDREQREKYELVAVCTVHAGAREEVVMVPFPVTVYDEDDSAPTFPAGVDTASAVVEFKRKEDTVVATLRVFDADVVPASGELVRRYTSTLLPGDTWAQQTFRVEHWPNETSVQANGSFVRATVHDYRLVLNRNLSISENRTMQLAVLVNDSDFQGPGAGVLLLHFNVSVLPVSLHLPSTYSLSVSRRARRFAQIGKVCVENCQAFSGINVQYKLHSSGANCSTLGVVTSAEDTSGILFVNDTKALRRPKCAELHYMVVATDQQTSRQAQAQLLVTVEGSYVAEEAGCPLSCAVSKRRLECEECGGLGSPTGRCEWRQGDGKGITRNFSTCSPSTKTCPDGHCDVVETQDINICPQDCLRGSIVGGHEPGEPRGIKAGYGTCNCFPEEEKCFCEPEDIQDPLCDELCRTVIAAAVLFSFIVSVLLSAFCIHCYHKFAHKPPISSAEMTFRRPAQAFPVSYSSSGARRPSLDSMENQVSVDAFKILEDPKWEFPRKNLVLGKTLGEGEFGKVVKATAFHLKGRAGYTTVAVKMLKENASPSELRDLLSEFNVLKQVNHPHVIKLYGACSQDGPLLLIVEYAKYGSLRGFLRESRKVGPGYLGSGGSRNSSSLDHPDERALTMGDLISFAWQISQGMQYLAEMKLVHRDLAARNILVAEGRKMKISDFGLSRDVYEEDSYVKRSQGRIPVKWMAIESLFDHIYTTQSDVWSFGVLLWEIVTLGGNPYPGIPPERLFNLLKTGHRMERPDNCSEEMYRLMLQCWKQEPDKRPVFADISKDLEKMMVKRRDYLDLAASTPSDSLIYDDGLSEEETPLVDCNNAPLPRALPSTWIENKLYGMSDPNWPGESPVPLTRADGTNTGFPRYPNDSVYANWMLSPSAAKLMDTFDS
Sequence of UniProt P11309 (whole entry, looked up): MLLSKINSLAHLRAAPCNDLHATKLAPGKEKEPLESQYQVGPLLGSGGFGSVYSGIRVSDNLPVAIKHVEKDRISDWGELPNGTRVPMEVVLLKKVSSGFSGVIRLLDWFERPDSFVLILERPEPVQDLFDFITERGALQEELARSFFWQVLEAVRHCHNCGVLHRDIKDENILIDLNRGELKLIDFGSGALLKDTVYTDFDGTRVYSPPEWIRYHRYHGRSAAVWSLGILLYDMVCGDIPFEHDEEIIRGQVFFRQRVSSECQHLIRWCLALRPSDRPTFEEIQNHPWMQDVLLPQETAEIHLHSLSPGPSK
Sequence of UniProt P42679 (whole entry, looked up): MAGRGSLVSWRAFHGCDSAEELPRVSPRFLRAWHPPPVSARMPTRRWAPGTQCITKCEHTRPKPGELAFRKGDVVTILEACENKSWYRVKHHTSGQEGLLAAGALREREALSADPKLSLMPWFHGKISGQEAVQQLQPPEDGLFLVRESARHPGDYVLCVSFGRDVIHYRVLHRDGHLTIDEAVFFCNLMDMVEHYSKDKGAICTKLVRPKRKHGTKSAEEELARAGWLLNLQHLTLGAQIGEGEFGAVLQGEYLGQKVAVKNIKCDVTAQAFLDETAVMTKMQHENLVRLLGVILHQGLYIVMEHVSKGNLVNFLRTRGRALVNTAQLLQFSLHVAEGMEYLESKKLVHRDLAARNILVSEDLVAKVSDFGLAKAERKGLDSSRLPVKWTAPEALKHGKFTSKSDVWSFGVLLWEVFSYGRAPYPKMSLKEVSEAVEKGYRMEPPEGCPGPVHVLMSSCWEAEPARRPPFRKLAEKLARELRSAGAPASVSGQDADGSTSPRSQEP
Sequence of UniProt P50750 (whole entry, looked up): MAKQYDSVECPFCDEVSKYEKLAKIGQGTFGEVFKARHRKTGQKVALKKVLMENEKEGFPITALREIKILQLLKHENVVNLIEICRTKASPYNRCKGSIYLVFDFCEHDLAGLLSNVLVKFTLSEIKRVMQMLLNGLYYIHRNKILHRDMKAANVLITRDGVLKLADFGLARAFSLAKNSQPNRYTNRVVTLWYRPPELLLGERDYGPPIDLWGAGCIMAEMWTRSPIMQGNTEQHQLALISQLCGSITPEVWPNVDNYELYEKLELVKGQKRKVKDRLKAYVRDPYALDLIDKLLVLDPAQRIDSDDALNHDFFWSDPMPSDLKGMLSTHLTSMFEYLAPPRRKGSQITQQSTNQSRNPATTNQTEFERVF
Sequence of UniProt O00141 (whole entry, looked up): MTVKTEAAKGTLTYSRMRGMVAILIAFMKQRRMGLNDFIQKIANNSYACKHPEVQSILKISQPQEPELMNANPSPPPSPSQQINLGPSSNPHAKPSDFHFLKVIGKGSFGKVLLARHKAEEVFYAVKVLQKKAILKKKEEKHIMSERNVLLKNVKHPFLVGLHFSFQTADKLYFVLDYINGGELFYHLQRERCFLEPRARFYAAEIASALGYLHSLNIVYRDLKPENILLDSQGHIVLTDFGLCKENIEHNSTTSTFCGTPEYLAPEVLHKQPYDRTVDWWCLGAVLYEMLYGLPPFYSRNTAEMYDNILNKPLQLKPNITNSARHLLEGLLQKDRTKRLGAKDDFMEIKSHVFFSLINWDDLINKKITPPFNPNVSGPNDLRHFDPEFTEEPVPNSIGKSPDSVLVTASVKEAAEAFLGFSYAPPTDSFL
Sequence of UniProt P07332 (whole entry, looked up): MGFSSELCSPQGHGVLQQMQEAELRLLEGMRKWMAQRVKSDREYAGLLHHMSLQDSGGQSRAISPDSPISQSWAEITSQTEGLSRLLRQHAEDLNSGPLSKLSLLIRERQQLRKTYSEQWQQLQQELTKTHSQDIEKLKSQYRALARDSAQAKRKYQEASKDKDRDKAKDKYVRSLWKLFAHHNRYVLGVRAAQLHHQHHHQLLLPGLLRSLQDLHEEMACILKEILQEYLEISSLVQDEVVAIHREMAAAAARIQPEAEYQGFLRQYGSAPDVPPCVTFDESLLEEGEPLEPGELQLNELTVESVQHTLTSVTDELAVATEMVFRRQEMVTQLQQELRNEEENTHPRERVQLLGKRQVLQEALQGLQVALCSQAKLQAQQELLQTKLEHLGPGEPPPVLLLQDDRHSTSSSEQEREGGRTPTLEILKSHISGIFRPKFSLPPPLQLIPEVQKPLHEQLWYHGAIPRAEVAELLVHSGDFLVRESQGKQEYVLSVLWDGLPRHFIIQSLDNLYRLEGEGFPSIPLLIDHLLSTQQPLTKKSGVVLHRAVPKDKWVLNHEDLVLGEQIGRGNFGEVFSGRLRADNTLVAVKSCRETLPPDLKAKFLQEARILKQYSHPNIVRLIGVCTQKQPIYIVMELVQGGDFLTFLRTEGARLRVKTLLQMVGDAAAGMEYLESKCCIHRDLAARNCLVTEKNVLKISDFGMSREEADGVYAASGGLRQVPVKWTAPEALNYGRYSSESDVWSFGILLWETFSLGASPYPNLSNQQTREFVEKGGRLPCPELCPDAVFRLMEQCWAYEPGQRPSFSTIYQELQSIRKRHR

Block 1
Cell line: Huh-7
Concentration: 10 µM
Time: 24 h
Quantity: viability
Compound = NNC(=O)c1ccncc1; result = 103%
Compound = Nc1ncnc2c1ncn2[C@@H]1O[C@H](CO)[C@@H](O)[C@H]1O; result = 101%
Compound = Cc1ccc(S(=O)(=O)NC(=O)NN2CCCCCC2)cc1; result = 93.7%

Block 2
Target: Prothrombin, mature alpha-thrombin (F2, Homo sapiens, UniProt P00734)
Technique: aptamer microarray, sandwich
Molecule type: DNA with 2'F-ANA
Matrix: in vitro
Concentration: 200 nM
Setting: whole 15-mer aptamer, many near background
Together with: Cy3 exosite-II aptamer, 400 nM
Direction: higher = stronger binding
Quantity: mean fluorescence intensity
Sequence: GGTTGGTGTGGTTGG
Modification = 2'F-ANA at 1 4 10 11 12 14; result = 69.1 a.u.
Modification = 2'F-ANA at 2 5 9 10 15; result = 48.3 a.u.
Modification = 2'F-ANA at 1 2 3 4 8 9 10 11 12 14; result = 51.7 a.u.
Modification = 2'F-ANA at 1 3 5 9 11 13 15; result = 51.6 a.u.
Modification = 2'F-ANA at 7 10 12 13 14 15; result = 119 a.u.
Modification = 2'F-ANA at 3 6 8 10 12; result = 504 a.u.
Modification = 2'F-ANA at 5 6 7 9 10 11 12 13 14 15; result = 46.2 a.u.
Modification = 2'F-ANA at 1 2 4 5 6 7 8 9 11 14; result = 45.4 a.u.

Block 3
SMILES: Cc1c(NC(=O)c2cc(C(N)=O)nc3cc(F)ccc23)c(C(F)(F)F)nn1Cc1ccc(C#N)cc1
Effect on: cell-free assay
Technique: competition with immobilised ligand
Concentration: 1 µM
Quantity: remaining binding
target = RET (Homo sapiens, UniProt P07949, V804M); result = 100%
target = FLT3 (Homo sapiens, UniProt P36888, R834Q); result = 83%
target = PNCK (Homo sapiens, UniProt Q6P2M8); result = 64%
target = LATS1 (Homo sapiens, UniProt O95835); result = 94%
target = FES (Homo sapiens, UniProt P07332); result = 83%
target = EPHA2 (Homo sapiens, UniProt P29317); result = 81%
target = PAK5 (Homo sapiens, UniProt Q9P286); result = 92%
target = MATK (Homo sapiens, UniProt P42679); result = 66%
target = PIK3CB (Homo sapiens, UniProt P42338); result = 83%
target = CDK4 (Homo sapiens, UniProt P11802); result = 100%
target = PIM1 (Homo sapiens, UniProt P11309); result = 86%
target = SGK1 (Homo sapiens, UniProt O00141); result = 90%
target = CDK9 (Homo sapiens, UniProt P50750); result = 86%

Block 4
Target: Protein C-ets-1 (ETS1, Homo sapiens, UniProt P14921, residues 1-441, full length assumed)
Technique: protein-binding microarray
Molecule type: double-stranded DNA, one strand shown
Matrix: in vitro
Concentration: not given
Setting: k-mer, scored over probes, only values ≥0.25
Direction: higher = stronger binding
Quantity: E-score
Target sequence (chain): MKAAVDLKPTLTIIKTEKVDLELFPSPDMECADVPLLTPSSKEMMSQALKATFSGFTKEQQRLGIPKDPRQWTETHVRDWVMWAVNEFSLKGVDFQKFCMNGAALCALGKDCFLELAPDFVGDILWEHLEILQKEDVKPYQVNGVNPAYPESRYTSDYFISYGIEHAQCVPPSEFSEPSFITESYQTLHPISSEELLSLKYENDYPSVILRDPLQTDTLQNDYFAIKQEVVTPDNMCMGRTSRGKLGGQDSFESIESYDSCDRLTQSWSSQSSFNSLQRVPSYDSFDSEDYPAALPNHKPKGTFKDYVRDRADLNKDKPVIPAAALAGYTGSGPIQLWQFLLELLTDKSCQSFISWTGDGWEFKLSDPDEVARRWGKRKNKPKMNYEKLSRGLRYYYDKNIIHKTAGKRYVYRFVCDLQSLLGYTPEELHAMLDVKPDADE
Sequence = CCGGAATA; result = 0.374
Sequence = CGGAAGAG; result = 0.447
Sequence = ACTTCCCA; result = 0.397
Sequence = AGGAAGCA; result = 0.44
Sequence = CCCGTCAC; result = 0.267
Sequence = GCCGGACA; result = 0.31
Sequence = CGGGCGGA; result = 0.38
Sequence = ATCCGCTC; result = 0.419
